Measured values of several laboratories.
A part holds a random share of what one study measured. Values joined by “and” are separate records of one study, mostly repeats; a detail may differ.
Sequence of UniProt Q06418 (whole entry, looked up): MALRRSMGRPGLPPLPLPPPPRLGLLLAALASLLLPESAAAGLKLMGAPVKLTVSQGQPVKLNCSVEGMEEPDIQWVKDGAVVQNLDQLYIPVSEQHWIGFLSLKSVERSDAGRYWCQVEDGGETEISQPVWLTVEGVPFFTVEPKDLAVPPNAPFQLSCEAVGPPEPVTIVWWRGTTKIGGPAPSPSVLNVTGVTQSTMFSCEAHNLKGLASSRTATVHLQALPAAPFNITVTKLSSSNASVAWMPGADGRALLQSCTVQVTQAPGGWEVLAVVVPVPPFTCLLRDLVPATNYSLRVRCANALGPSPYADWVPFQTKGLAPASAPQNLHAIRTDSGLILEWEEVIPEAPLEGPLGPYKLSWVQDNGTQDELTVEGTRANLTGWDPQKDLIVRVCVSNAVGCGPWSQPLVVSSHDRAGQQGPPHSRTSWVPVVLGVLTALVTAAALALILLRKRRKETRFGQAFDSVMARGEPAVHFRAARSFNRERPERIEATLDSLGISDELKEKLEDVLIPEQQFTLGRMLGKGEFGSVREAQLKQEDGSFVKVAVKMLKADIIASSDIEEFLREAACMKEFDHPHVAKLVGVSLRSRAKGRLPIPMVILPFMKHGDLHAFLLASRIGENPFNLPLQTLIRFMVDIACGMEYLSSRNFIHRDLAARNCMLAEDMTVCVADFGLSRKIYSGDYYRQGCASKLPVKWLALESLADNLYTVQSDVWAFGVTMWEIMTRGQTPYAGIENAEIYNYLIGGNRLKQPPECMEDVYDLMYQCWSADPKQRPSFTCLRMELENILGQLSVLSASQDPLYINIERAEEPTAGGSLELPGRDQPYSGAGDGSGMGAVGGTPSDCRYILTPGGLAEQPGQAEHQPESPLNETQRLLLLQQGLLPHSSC
Sequence of UniProt Q05513 (whole entry, looked up): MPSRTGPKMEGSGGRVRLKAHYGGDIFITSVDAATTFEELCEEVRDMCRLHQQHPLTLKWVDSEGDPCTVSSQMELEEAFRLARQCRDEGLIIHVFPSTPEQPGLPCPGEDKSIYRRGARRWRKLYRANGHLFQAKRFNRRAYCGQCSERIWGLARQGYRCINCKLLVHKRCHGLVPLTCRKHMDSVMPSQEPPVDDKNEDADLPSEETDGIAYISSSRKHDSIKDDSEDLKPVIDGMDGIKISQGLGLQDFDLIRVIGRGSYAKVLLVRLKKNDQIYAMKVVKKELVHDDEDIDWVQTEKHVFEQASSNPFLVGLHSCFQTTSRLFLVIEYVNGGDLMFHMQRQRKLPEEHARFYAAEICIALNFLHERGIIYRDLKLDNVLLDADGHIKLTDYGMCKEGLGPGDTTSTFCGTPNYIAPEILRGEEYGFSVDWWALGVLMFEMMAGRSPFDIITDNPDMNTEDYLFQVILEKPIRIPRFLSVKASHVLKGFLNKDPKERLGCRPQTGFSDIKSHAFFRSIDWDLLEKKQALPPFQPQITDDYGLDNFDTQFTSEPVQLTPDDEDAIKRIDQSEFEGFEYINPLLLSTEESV
Sequence of UniProt Q96SB4 (whole entry, looked up): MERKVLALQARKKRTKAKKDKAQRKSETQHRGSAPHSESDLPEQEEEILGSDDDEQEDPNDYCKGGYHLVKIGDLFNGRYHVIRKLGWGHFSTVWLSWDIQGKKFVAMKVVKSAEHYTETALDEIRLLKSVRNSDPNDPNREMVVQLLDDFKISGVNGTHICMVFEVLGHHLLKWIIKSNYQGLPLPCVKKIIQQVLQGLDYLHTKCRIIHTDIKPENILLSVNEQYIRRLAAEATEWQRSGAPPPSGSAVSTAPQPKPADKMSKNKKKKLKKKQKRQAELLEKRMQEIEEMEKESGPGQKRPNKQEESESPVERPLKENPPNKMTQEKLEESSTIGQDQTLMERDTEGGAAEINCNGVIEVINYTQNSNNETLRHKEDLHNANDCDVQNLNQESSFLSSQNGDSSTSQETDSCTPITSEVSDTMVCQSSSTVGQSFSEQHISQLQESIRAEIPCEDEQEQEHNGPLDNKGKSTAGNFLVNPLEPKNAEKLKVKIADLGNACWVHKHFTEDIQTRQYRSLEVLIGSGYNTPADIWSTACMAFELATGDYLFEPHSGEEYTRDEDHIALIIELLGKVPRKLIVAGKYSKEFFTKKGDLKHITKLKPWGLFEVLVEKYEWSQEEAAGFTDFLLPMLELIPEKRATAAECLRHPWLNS
Sequence of UniProt Q00535 (whole entry, looked up): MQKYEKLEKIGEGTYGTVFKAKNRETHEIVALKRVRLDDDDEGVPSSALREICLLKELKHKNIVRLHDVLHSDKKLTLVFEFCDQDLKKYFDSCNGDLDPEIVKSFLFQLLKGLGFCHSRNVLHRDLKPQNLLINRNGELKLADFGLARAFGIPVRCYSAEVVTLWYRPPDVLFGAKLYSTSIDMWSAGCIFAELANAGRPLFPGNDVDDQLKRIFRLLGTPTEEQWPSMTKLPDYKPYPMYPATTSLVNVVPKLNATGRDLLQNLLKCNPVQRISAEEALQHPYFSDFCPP

Block 1 — observed: enzyme activity; action: inhibitor; concentration: 77 µM; reference: untreated
Target: DNA polymerase theta, ATPase domain (POLQ, Homo sapiens, UniProt O75417)
Sequence of UniProt O75417 (whole entry, unmodified, looked up): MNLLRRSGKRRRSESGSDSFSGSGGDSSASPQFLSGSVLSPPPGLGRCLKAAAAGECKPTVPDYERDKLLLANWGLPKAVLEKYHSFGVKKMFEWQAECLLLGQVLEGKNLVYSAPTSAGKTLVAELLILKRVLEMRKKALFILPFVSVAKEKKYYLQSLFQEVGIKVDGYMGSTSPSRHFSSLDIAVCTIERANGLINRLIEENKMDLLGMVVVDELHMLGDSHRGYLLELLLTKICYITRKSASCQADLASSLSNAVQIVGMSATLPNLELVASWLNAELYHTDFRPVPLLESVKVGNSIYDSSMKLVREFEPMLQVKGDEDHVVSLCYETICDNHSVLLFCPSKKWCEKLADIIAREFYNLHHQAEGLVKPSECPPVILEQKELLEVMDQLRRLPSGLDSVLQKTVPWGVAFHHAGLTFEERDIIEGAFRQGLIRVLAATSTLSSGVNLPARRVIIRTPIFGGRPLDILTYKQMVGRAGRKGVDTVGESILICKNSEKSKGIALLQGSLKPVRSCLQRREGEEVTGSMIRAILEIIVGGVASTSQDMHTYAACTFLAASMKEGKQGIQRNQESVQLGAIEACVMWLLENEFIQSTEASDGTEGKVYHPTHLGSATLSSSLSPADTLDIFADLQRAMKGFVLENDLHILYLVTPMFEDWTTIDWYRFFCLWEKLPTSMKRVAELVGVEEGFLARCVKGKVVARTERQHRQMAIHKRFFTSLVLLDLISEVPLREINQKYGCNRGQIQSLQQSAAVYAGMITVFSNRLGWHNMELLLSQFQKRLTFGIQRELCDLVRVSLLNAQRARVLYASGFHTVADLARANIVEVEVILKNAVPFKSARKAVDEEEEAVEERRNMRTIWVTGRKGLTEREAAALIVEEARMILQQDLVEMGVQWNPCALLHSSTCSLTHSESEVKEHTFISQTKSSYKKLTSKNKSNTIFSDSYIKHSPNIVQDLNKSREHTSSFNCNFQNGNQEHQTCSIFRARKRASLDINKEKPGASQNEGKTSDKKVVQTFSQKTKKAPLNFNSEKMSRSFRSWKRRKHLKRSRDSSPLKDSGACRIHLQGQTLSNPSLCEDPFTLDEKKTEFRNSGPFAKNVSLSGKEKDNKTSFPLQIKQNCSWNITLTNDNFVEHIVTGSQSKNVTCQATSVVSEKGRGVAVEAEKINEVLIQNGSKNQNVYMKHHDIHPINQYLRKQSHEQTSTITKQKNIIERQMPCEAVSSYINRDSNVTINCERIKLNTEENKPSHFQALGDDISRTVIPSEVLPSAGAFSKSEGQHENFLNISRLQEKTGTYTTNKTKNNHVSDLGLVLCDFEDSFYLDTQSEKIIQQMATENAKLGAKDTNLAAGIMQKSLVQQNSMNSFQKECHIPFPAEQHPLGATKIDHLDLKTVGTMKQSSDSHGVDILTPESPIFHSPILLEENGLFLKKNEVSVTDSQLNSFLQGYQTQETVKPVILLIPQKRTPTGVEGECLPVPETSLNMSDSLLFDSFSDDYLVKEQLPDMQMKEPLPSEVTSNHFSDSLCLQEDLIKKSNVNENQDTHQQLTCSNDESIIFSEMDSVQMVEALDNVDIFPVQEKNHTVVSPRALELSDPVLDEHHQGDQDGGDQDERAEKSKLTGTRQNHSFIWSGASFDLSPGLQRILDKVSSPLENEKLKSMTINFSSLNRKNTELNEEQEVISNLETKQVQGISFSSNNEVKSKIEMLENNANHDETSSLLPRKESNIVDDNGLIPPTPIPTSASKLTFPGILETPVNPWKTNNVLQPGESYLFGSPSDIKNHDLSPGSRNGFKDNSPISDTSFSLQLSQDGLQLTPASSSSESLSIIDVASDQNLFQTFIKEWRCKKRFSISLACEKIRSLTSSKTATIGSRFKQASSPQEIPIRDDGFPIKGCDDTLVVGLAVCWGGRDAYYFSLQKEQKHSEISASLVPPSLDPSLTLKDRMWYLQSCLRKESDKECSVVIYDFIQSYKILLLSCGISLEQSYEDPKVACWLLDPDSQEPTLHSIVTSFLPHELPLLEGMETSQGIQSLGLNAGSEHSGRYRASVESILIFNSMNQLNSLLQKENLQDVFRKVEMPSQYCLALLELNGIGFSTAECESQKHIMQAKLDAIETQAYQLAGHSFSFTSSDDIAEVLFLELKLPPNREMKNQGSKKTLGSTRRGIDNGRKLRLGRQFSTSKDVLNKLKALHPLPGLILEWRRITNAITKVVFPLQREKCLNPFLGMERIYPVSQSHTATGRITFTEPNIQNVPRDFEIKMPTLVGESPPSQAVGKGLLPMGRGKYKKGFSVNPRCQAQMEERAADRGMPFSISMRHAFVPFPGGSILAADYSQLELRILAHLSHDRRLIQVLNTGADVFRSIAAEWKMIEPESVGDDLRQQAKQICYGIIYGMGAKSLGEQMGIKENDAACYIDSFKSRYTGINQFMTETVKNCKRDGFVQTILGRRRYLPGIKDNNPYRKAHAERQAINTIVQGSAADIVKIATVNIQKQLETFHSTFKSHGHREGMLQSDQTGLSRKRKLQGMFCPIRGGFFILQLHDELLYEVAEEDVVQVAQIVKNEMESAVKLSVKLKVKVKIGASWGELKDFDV
| Structure (SMILES) | remaining activity |
| --- | --- |
| CC(C)(C)NCC(O)COc1cccc2[nH]c(=O)[nH]c12 (stereo not shown) | 101% |
| N=C(N)c1ccc(N=NNc2ccc(C(=N)N)cc2)cc1 | 102% |
| CCN1CCN(Cc2ccc(Nc3ncc(F)c(-c4cc(F)c5nc(C)n(C(C)C)c5c4)n3)nc2)CC1 | 96.3% |
| NC(=O)c1noc([C@H](CCCC2CCCCC2)CC(=O)NO)n1 | 95.9% |
| N[C@H]1C[C@@H]1c1ccc(-c2cccc(O)c2)cc1 | 104% |
| CC(=O)C(C)=O | 99.8% |
| CCCCc1ncc(/C=C(\Cc2cccs2)C(=O)O)n1Cc1ccc(C(=O)O)cc1 | 90.2% and 88.1% |
| CCC(C)(Oc1ccc(C2(c3ccc(OC(C)(CC)C(=O)O)cc3)CCCCC2)cc1)C(=O)O (stereo not shown) | 66.7% |
| C[N+](C)(C)CC(O)CC(=O)[O-] (racemic) | 83.6% |
| Cc1c(Nc2ncccc2C(=O)O)cccc1C(F)(F)F | 95.6% and 90.8% |
| O=C(CCc1ccc(O)cc1)c1c(O)cc(O)cc1O[C@@H]1O[C@H](CO)[C@@H](O)[C@H](O)[C@H]1O | 96.5% |

Block 2 — cell line: mouse MPNST tumor cells; technique: high-content nuclear imaging; refers to: cell number; concentration: 10 µM; time: 12 h; notes: mean of 2 replicates; reference: plate mean; reading: higher = more cells
| Structure (SMILES) | nuclei count |
| --- | --- |
| COc1cc2nc(N(C)CCCNC(=O)C3CCCO3)nc(N)c2cc1OC (stereo not shown) | 4.34 z-score |
| CC(C)(CO)Cc1cc(C(C)(C)C)c(O)c(C(C)(C)C)c1 | 1.21 z-score |
| Cc1c(F)cc(C(=O)NC2CC2)cc1-c1c(F)cn2c(C(C)(C)C)nnc2c1F | -0.219 z-score |
| CS(=O)(=O)Nc1ccc([N+](=O)[O-])cc1OC1CCCCC1 | 0.886 z-score |
| CCCC(=O)C1(c2ccccc2)CCN(C(=O)[C@@H](Cc2ccc(OC)cc2)NC(=O)[C@@H](N)Cc2cncn2C)CC1 | 4.11 z-score |
| CCOC(=O)[C@H](CCc1ccccc1)N[C@H]1CCc2ccccc2N(CC(=O)O)C1=O | 1.17 z-score and 0.803 z-score |
| CC[C@H]1OC(=O)C[C@@H](O)[C@H](C)[C@@H](O[C@@H]2O[C@H](C)[C@@H](O[C@H]3C[C@@](C)(O)[C@@H](O)[C@H](C)O3)[C@H](N(C)C)[C@H]2O)[C@@H](CC=O)C[C@@H](C)C(=O)/C=C/C(C)=C/[C@@H]1CO[C@@H]1O[C@H](C)[C@@H](O)[C@@H](OC)[C@H]1OC | -0.161 z-score |
| Cc1ccc(OCCSc2ncccn2)c(Br)c1 | 0.74 z-score |
| CC(C)(C)c1ccc(OC2CCCCC2O)cc1 (stereo not shown) | 2 z-score |
| CNC(=O)c1cc(Oc2ccc(NC(=O)Nc3ccc(Cl)c(C(F)(F)F)c3)cc2)ccn1 | -0.164 z-score |
| O=C(O)CN(CCN(CC(=O)O)CC(=O)O)CCN(CC(=O)O)CC(=O)O | 1.78 z-score |

Block 3 — observed: enzyme activity; action: inhibitor; concentration: 0.5 µM; reference: control
SMILES: Cc1cc(Nc2cc(N3CCN(C)CC3)nc(Sc3ccc(NC(=O)C4CC4)cc3)n2)[nH]n1
| target | remaining activity [%] |
| --- | --- |
| SIK2 (Homo sapiens, UniProt Q9H0K1) | 80 |
| PAK1 (Homo sapiens, UniProt Q13153) | 100 |
| EPHA6 (Homo sapiens, UniProt Q9UF33) | 48.4 |
| MUSK (Homo sapiens, UniProt O15146) | 103 |
| PRKCZ (Homo sapiens, UniProt Q05513) | 76.4 |
| RPS6KA3 (Homo sapiens, UniProt P51812) | 82.1 |
| TYRO3 (Homo sapiens, UniProt Q06418) | 85 |
| PAK6 (Homo sapiens, UniProt Q9NQU5) | 104 |
| PRKCQ (Homo sapiens, UniProt Q04759) | 86 |
| SRPK1 (Homo sapiens, UniProt Q96SB4) | 96.4 |
| EPHA2 (Homo sapiens, UniProt P29317) | 34.4 |
| CAMKK1 (Homo sapiens, UniProt Q8N5S9) | 86 |

Block 4 — observed: cell-free assay; technique: competition with immobilised ligand; concentration: 1 µM
Structure (SMILES): O=C(Nc1cccnn1)N1CCC(=Cc2cccc(Oc3ccc(C(F)(F)F)cn3)c2)CC1
| target | remaining binding [%] |
| --- | --- |
| CDK5 (Homo sapiens, UniProt Q00535) | 92 |
| FES (Homo sapiens, UniProt P07332) | 76 |
| CDK11B (Homo sapiens, UniProt P21127) | 100 |
| ALK (Homo sapiens, UniProt Q9UM73) | 100 |
| PTK2 (Homo sapiens, UniProt Q05397) | 100 |
| Ribosomal protein S6 kinase alpha-5, C-terminal kinase domain (RPS6KA5, Homo sapiens, UniProt O75582) | 83 |
| PLK3 (Homo sapiens, UniProt Q9H4B4) | 100 |
| TYRO3 (Homo sapiens, UniProt Q06418) | 100 |
| PIP5K1A (Homo sapiens, UniProt Q99755) | 100 |
| PIM1 (Homo sapiens, UniProt P11309) | 85 |
| CSNK2A1 (Homo sapiens, UniProt P68400) | 100 |
| PIK3CA (Homo sapiens, UniProt P42336, H1047L) | 100 |
| FLT3 (Homo sapiens, UniProt P36888, N841I) | 69 |
| FLT3 (Homo sapiens, UniProt P36888, R834Q) | 100 |
| LRRK2 (Homo sapiens, UniProt Q5S007, G2019S) | 100 |
| CSNK1G2 (Homo sapiens, UniProt P78368) | 92 |
| CDK4 (Homo sapiens, UniProt P11802) | 100 |
| DAPK2 (Homo sapiens, UniProt Q9UIK4) | 69 |
| MAPK6 (Homo sapiens, UniProt Q16659) | 90 |
| STK17B (Homo sapiens, UniProt O94768) | 100 |
| IGF1R (Homo sapiens, UniProt P08069) | 87 |

For quick reference, copied from above (block 4):
| target | remaining binding [%] |
| --- | --- |
| PIM1 (Homo sapiens, UniProt P11309) | 85 |
| CSNK1G2 (Homo sapiens, UniProt P78368) | 92 |
| FLT3 (Homo sapiens, UniProt P36888, N841I) | 69 |
| CDK5 (Homo sapiens, UniProt Q00535) | 92 |
| LRRK2 (Homo sapiens, UniProt Q5S007, G2019S) | 100 |
